Experimental data collected from several papers.
Numbered parts are unrelated; each lists some results of a single study.

Set 1 — technique: EMSA with sequencing; form: double-stranded DNA, one strand shown; matrix: in vitro; tested at: 10 and 20 nM; baseline: negative control set to 0; direction: higher = stronger binding
Target: Hepatocyte nuclear factor 3-alpha (Foxa1, Mus musculus, UniProt P35582, residues 1-468, full length assumed)
Notes: whole designed probe, mean of two concentrations, ends assumed
Residues (chain): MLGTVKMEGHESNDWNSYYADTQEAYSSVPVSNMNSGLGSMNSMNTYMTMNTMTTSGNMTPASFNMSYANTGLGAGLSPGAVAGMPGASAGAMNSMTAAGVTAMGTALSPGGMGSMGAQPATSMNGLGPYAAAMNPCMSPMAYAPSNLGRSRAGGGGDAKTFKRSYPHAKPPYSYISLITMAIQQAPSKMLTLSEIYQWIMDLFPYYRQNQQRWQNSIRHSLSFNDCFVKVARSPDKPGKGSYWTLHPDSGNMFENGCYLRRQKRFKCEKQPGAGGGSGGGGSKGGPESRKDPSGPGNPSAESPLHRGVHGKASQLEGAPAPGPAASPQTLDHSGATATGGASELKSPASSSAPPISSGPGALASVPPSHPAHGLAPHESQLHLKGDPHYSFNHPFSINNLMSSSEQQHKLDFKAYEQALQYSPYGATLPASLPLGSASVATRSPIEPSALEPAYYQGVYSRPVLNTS
Under “normalised bound fraction”, `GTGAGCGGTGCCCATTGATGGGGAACCATTAGAGTCAAAGTTGTTAAGGGGAGCTAGTCATAGCTACCACGTGGCCAGGCATGTGGAACCAGACACCAGGCACACATCATGAATCATCATATTTACTTTAAATAATGCTGACAACCTAGTTCATAGTGACACACTACTTGAGATATATAGAATAACATTATTACCCAGTAAGTATGTGAACATTCCGATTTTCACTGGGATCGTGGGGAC` is recorded as 0.293 ratio.
For `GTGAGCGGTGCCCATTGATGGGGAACAATCTTCATGGAAAACTCTAAGGCAGATGGGAAAAAGAGAACTTGTTGATATTGGCCCTTAGCCAAGGGCAGAGGGTGATATAACAACAACTGATGTTTGCATAACTTCACCTCCTGGACCCTGGGGTGCTTGCAAACATCCATTCATTCATCCTGGTTCACTCATGTGAAATATGTAGGTGGTGTGTTTTAATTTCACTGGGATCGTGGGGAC`, “normalised bound fraction” read 0.333 ratio.
Under “normalised bound fraction”, `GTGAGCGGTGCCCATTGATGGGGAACTGCTTGTGTTTCAGTAAAAATAGACTAGTACGTCTAAACCAACCTCATTTATTTTTAAGTAATTTCTTCTGAGCAAGTGATAAACTGATACATGTTTACACTGAACTCTTTCTTAGCAATAAGACAATAAATATTCTTTTAAAAAAACACGTTTAAAGTGTTTCACTAAATGTTTTCTCATTATTTGTAACAATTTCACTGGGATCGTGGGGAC` is recorded as 0.155 ratio.
Under “normalised bound fraction”, `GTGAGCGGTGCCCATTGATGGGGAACTTAACTTAGGTAATTGAATATTTAATTTATTGATATTCTTAAAATGTTTCTTTCCAAACAGACTACTTTTTTTCAGTTTGATCTTCTTTCAAATGTAATCTTGCAGTTTTTTTGTTTCTGAATTTTTATATTAATTGCAGTTTATTAATCAATATTGATAAGCATTTCATGGGTATCAAGACCATTTGATTTGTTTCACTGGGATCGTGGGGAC` is recorded as 0.0979 ratio.
`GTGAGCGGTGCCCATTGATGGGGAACTTTCCAGCCCTTAGTTTCTGGCATTTAACCTGACTCTGGTCCCTGAATGGCATGGGAGTGCTTTCAACCACAGGTTTCCACATTCATGCCACTTGTTTGCTTTTCTGTCACATTCTGATCTACAGAGATCTTTATTTGCTTTGTGTTTCCAATGGAGAAAGAGCTTGGGAAGGGAGGATCCTAATTGTCTAAATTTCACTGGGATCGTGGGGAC`: “normalised bound fraction” 0.497 ratio.

Set 2 — technique: aptamer microarray, sandwich; form: DNA with 2'F-ANA; matrix: in vitro; tested at: 200 nM; together with: Cy3 exosite-II aptamer, 400 nM; direction: higher = stronger binding; sequence: GGTTGGTGTGGTTGG
Target: Prothrombin, mature alpha-thrombin (F2, Homo sapiens, UniProt P00734)
Notes: whole 15-mer aptamer, many near background
For `2'F-ANA at 1 3 4 6 7 11 12 13 15`, “mean fluorescence intensity” read 224 a.u.
For `2'F-ANA at 1 3 9 14 15`, “mean fluorescence intensity” read 98.4 a.u.
Under “mean fluorescence intensity”, `2'F-ANA at 3 4 6 8 9 13 14` is recorded as 209 a.u.
`2'F-ANA at 1 2 3 4 5 6 9 11 14 15` — result for “mean fluorescence intensity”: 48 a.u.
Under “mean fluorescence intensity”, `2'F-ANA at 4 5 8 10 11 12` is recorded as 46.1 a.u.
`2'F-ANA at 1 2 3 4 12 14`: “mean fluorescence intensity” 86.2 a.u.
Under “mean fluorescence intensity”, `2'F-ANA at 4 5 6 7 9 12 15` is recorded as 123 a.u.
`2'F-ANA at 1 4 5 10 12`: “mean fluorescence intensity” 44.5 a.u.
For `2'F-ANA at 1 2 3 4 5 8 9 10 12 13 14 15`, “mean fluorescence intensity” read 54.6 a.u.
For `2'F-ANA at 2 5 6 9 15`, “mean fluorescence intensity” read 69.4 a.u.
For `2'F-ANA at 1 2 6 7 8 9 10 13 15`, “mean fluorescence intensity” read 64.4 a.u.
For `2'F-ANA at 2 3 5 6 8 10 11 12`, “mean fluorescence intensity” read 58.7 a.u.
`2'F-ANA at 2 3 5 6 7 8 9 10 12`: “mean fluorescence intensity” 61.9 a.u.
`2'F-ANA at 2 3 5 6 8 9 10 14 15` — result for “mean fluorescence intensity”: 76.9 a.u.
`2'F-ANA at 1 3 4 5 6 8 9 13 15` — result for “mean fluorescence intensity”: 52.1 a.u.
`2'F-ANA at 3 5 7 11 12`: “mean fluorescence intensity” 197 a.u.
`2'F-ANA at 1 2 3 4 5 8 12 14 15`: “mean fluorescence intensity” 49.4 a.u.
`2'F-ANA at 1 2 3 5 8 9 10 11 14 15`: “mean fluorescence intensity” 61 a.u.
For `2'F-ANA at 1 3 6 11 14`, “mean fluorescence intensity” read 73 a.u.

Set 3 — technique: RNA Bind-n-Seq; form: RNA; matrix: in vitro; tested at: 365 nM; baseline: no-protein control; direction: higher = stronger binding
Target: RNA binding protein fox-1 homolog 2, RRM domain, GST-SBP tag (RBFOX2, Homo sapiens, UniProt O43251-10, residues 100-194)
Notes: natural RNA segment, single round, ends assumed
Under “RBNS enrichment (R)”, `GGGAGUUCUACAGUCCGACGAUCUUUGGUUUCUGGCUUUUUGUUUUGUUUUGUGGACCCGCCUGAGCACCAUUGACUGCCUGCUGUUCCGUUUCUCCCUAUGCAAACAAACAAAAACAGUGAGGGGGUCCAUAUGGAAUUCUCGGGUGCCAA` is recorded as 2.25.
For `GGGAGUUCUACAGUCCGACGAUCCAUCCCUAGCACCACAGAGCAGGGAGGGGACACAGAUUUAGGAGAGAUUUGUCUUUUUCUCCUUUGGCUGUGUGUUGUCCAGGGAUAUAUAUUUCCUAAAAUCUUUUUAAUGGAAUUCUCGGGUGCCAA`, “RBNS enrichment (R)” read 0.407.
`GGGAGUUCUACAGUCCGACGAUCUAAAACCAUUCAGGGUAAUUUUUCUUGUCAGUGGCCAGUGGCAUCCCUGACCUCCAGAAAGAAGCCAUGCAGUAUAAACUCCUUGUGGUGAACAAGUCUGUUCAUGGCAAUGGAAUUCUCGGGUGCCAA`: “RBNS enrichment (R)” 0.583.
Under “RBNS enrichment (R)”, `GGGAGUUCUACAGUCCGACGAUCAAGGGAGGUGAAAAUACCUACCUCACAGAACUGUUGGCUCAGAUGAGACGCUGUAUGUGUAAACAUCCUGUAAACUUCGUACAAAUGUGAAGUAUUAUUAAUAUUGCUACUGGAAUUCUCGGGUGCCAA` is recorded as 0.529.
For `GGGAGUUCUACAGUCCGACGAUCAACAAAAUGUUUCUUAAUUUUAUUGUGGAGUUACAACUUGCAUGUUCCUUACUCCUGUUGGCUUGAUGGAACAGGUGCAUUCACACUAUGAAACAGAAAGAUCUGUCCAAUGGAAUUCUCGGGUGCCAA`, “RBNS enrichment (R)” read 2.36.
For `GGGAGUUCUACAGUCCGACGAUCCUGCCUGAUUCACCCUUAUUGGCAUGUGAGCCAUUGGGAUGCCAUUGAGAAUCAUGAUGAACUUUGGGUGUGUCUGUCCUGUGAGGAAGCGUGUCUGGAAAGGGGUUCAUUGGAAUUCUCGGGUGCCAA`, “RBNS enrichment (R)” read 1.59.
`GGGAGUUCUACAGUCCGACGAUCAACCUGAAGACAUCCUACAAUGAUUUCCCACACUCUAUUUUUCCUUAUGUUUGCUUAAAUAGCAAAAAUCAACACUAAAUGUCUAAAGGAAUUUGUAAUUUGAGACCUAGUGGAAUUCUCGGGUGCCAA`: “RBNS enrichment (R)” 0.371.
`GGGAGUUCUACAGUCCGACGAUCCUGAACUGUGUUUACUGGAAAAAUUCAGAGGCCUAAAGUUUAAAAUAAAAUUUACUUCUGAUGUUUUAAUUAAAAUGUUUGCCACAUUAACUUUUCUGAUGCCUUAAAAGUGGAAUUCUCGGGUGCCAA` — result for “RBNS enrichment (R)”: 0.595.

Set 4 — technique: protein binding microarray; form: double-stranded DNA, one strand shown; matrix: in vitro; tested at: not given; baseline: not given; direction: higher = stronger binding
Target: Histone acetyltransferase KAT6A, both winged helices, GST fusion (KAT6A, Homo sapiens, UniProt Q92794, residues 1-181)
Notes: 8-mer, flanks averaged, mean of 2 arrays, mostly near background
Residues (chain): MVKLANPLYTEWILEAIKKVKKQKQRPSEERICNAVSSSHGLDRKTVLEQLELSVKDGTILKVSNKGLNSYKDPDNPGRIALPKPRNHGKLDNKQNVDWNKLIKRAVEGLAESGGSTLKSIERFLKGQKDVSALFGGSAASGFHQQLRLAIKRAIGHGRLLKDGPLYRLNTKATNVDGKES
For `AAGAGGGC`, the E-score was 0.0642.
For `TGGGGACA`, the E-score was -0.262.
With `TGCGAACA` the E-score was 0.0143.
The E-score of `GTACCAGA` is reported as -0.194.
The E-score of `CCTCTAGC` is reported as -0.127.
The E-score of `GTACCATA` is reported as -0.0287.
`AAGCAGTA` has an E-score of -0.234.
For `GGTTCCAC`, the E-score was -0.0307.
`CGGAGGTA` has an E-score of -0.0726.
The E-score of `CCACGAAG` is reported as -0.0881.
For `AAACATCT`, the E-score was 0.014.
`GTCGCATA` gave an E-score of 0.168.
With `GCCGGGTA` the E-score was 0.13.
With `CCATAAGC` the E-score was -0.0609.
The E-score of `CAAAGTCC` is reported as -0.114.
With `GAAACCAC` the E-score was -0.0912.
With `AATACAAT` the E-score was -0.0569.
For `CACCGCTG`, the E-score was 0.165.
With `AAGGCCGA` the E-score was 0.172.
The E-score of `CAACCTGC` is reported as -0.0601.

Excerpt of the above (set 2):
`2'F-ANA at 3 5 7 11 12`: “mean fluorescence intensity” 197 a.u.
Under “mean fluorescence intensity”, `2'F-ANA at 4 5 8 10 11 12` is recorded as 46.1 a.u.
Under “mean fluorescence intensity”, `2'F-ANA at 4 5 6 7 9 12 15` is recorded as 123 a.u.
For `2'F-ANA at 2 5 6 9 15`, “mean fluorescence intensity” read 69.4 a.u.
